# Assay results gathered from unrelated publications.
# ± gives the spread as reported.
# LGALS3: Galectin-3 (LGALS3, Homo sapiens, UniProt P17931)
Compound,target,test,test system,conditions,how to read,endpoint,result
Cc1cc(C)c2sc(NC(=O)C3CCN(S(=O)(=O)c4ccc(F)cc4)CC3)nc2c1,"N-acyl-phosphatidylethanolamine-hydrolyzing phospholipase D (Napepld, Mus musculus, UniProt Q8BH82)",,,"10 µM, with: flame-NAPE substrate",,K1/2,5.9 µM
O=C(O)[C@@H]1O[C@@H](O[C@H]2[C@H](O)[C@H](O)[C@H](O[C@H]3[C@H](O)[C@H](O)[C@H](O[C@H]4[C@H](O)[C@H](O)[C@H](O)O[C@H]4C(=O)O)O[C@H]3C(=O)O)O[C@H]2C(=O)O)[C@@H](O)[C@@H](O)[C@@H]1O,"Beta-lactoglobulin (LGB, Bos taurus, UniProt P02754, A134V/G80D)",isothermal titration calorimetry,,"concentration not given, pH 4.00, 37 °C, 50 mM KH2PO4",ligand per protein,binding stoichiometry,4
Cc1ccc2ccc3ccc(C)nc3c2n1.Cc1ccc2ccc3ccc(C)nc3c2n1.O.[Cl-].[Cl-].[Cl-].[Yb+3],"Albumin (ALB, Bos taurus, UniProt P02769)","FRET, item: tryptophan",,"25 °C, excitation 280 nm",,donor-acceptor distance,2.69 nm
COC1CCC(N(C(=O)C2CCC(C)CC2)c2cc(C3=CCCCC3)sc2C(=O)O)CC1 (stereo not shown),"Probable UDP-N-acetylglucosamine--peptide N-acetylglucosaminyltransferase SEC, 5-TPR truncated construct (SEC, Arabidopsis thaliana, UniProt Q9M8Y0)",,,"100 µM, with: UDP-GlcNAc 200 µM",,O-GlcNAcylation,no effect
COc1c(F)c(F)c(C(=O)N[C@H]2[C@@H](O)[C@@H](CO)O[C@@H](S[C@@H]3O[C@H](CO)[C@H](O)[C@H](NC(=O)c4c(F)c(F)c(OC)c(F)c4F)[C@H]3OS(=O)(=O)O)[C@@H]2O)c(F)c1F,LGALS3,ITC,,,,–TΔS,2.1 ± 0.143 kcal/mol
Nc1nc2c(ncn2C2OC3COP(=O)(O)OC4C5OCC4(CSP(=O)(O)OC3C2F)OC5n2cnc3c(=O)[nH]c(N)nc32)c(=O)[nH]1 (stereo not shown),"Stimulator of interferon genes protein (STING1, Homo sapiens, UniProt Q86WV6)",thermal shift,,,higher = stronger stabilisation,ΔTm,8 °C
CC(C)n1ccc2c(N3CCN(CCCCOc4ccc5c(c4)NC(=O)CC5)CC3)cccc21,"D(2) dopamine receptor (DRD2, Homo sapiens, UniProt P14416)","Gi/o signalling, agonist",human cells,concentration not given,baseline: quinpirole,activity,inactive
CC(/C=C/C(=O)NO)=C\[C@@H](C)C(=O)c1ccc(N(C)C)cc1,"Histone deacetylase 8 (HDAC8, Homo sapiens, UniProt Q9BY41)",ITC in four buffers,,"concentration not given, pH 7.5",,protons released on binding,0.71 ± 0.04 protons per ligand
CCN(CC)C(=O)C1CCCN(C(=O)Nc2ccc3nc(-c4ccco4)c(-c4ccco4)nc3c2)C1 (stereo not shown),"Peptidyl-prolyl cis-trans isomerase A (PPIA, Homo sapiens, UniProt P62937)",tryptophan fluorescence quenching,,"6 µM PPIA, with: ciclosporin 40 µM",,50% occupancy concentration,13.1 µM
CCCCCCCCSc1nc2c([nH]1)c(=O)n(C)c(=S)n2C,"Androgen receptor (AR, Homo sapiens, UniProt P10275)","reporter gene, antagonist, PSA-luciferase",HeLa-A6,"10 µM, 24 h, with: 5 nM dihydrotestosterone",baseline: maximal activity,remaining activity,81%
O=C(O)c1cc([N+](=O)[O-])ccc1NCCCc1ccccc1,"Cystic fibrosis transmembrane conductance regulator (CFTR, Homo sapiens, UniProt P13569, K1250A)","chloride current, pore blocker, inside-out patch clamp",K1250A,"210 µM, at -80 mV",baseline: control,current,13%
CO[C@@H]([C@@H](O)[C@H](O)C(=O)CO)[C@@H](C)O,"3-dehydroquinate synthase, chloroplastic (DHQS, Arabidopsis thaliana, UniProt Q8VYV7)",enzyme activity,,concentration not given,,activity,inactive
CC(=O)N[C@H]1[C@@H](O[C@H](C)[C@H](NC(=O)[C@@H](NC(=O)CNC(=O)[C@@H](N)Cc2c[nH]cn2)C(C)C)C(=O)N[C@@H](CO)C(=O)N[C@@H](C)C(=O)N2CCC[C@H]2C(=O)N[C@@H](CC(=O)O)C(N)=O)O[C@H](CO)[C@H](O)[C@@H]1O[C@@H]1O[C@H](CO)[C@H](O)[C@H](O)[C@H]1O,LGALS3,"binding, isothermal titration calorimetry",,full-length protein,,–TΔS,-3.4 kcal/mol
"CC(C)C[C@H](NC(=O)[C@H](Cc1ccc(O)cc1)NC(=O)[C@@H](CCCNC(=N)N)NC(=O)[C@@H](CO)NC(=O)[C@H](Cc1ccccc1)NC(=O)[C@H](CC1CCCCC1)NC(=O)[C@H](CC(=O)O)NC(=O)CN1CCCN2CCN(CCCN(CC(=O)O)CC2)CC1)C(=O)N[C@@H](Cc1c[nH]c2ccccc12)C(=O)N[C@@H](CO)C(=O)O (single isomer, unassigned)","Urokinase plasminogen activator surface receptor (Homo sapiens, UniProt Q03405)","binding, SPR",,,,koff,0.0046 s⁻¹
COC(=O)c1ccc(CNC(=O)[C@@H]2C[C@@H](O)CN2C(=O)CC(C)(C)C)cc1,"von Hippel-Lindau disease tumor suppressor, with Elongin B/C (VHL, Homo sapiens, UniProt P40337)",isothermal titration calorimetry,,25 °C,,entropic term (−TΔS),-2.51 ± 0.12 kcal/mol
CC(Oc1nc(-c2ccccc2)nc2ccccc12)C(=O)N(C)c1ccccc1 (stereo not shown),"Translocator protein (Tspo, Rattus norvegicus, UniProt P16257)",binding,rat brain homogenate,pKi minus clogD,,lipophilic efficiency,4.4 ± 0.5
COc1ccc(-c2cc(C(F)(F)F)nc(NCc3ccccc3)n2)cc1OC,"Glucagon-like peptide 1 receptor (GLP1R, Homo sapiens, UniProt P43220)","affinity cooperativity, allosteric modulator",HEK-293T overexpressing GLP1R,with: GLP-1,,cooperativity factor alpha,3 to 5
COc1ccc(/C=C/C(=O)NC[C@H]2O[C@H](OC)[C@@H](O)[C@@H](O)[C@@H]2O)cc1OC,"Fucose-binding lectin PA-IIL (lecB, Pseudomonas aeruginosa, UniProt Q9HYN5)","binding, ITC",,25 °C,,ΔG,-6.81 ± 0.16 kcal/mol
"CC[C@@]1(c2cccc(C(F)(F)F)c2)C2=C(Nc3n[nH]cc31)[C@H](F)C(C)(C)CC2=O (single isomer, unassigned)","Glycogen synthase kinase-3 alpha (Gsk3a, Rattus norvegicus, UniProt P18265)",kinobead chemoproteomics,"P10 rat, brain","60 mg/kg, 3 h post-dose at Cmax",,target engagement,> 90%
COc1c(F)c(F)c(C(=O)N[C@H]2[C@@H](O)[C@@H](CO)O[C@@H](S[C@@H]3O[C@H](CO)[C@H](O)[C@H](NC(=O)c4c(F)c(F)c(OC)c(F)c4F)[C@H]3O)[C@@H]2O)c(F)c1F,LGALS3,ITC,,Kd fixed from FP,,ΔH,-12.4 ± 0.239 kcal/mol
CC1=C(/C=C/C(C)=C/C=C/C(C)=C/C=O)C(C)(C)CCC1,"Cyclic nucleotide-gated channel alpha-1 (CNGA1, Bos taurus, UniProt Q00194)","ion current, inhibitor, patch clamp",,,,time constant of inhibition,854 ± 105 s
CC[C@H](C)[C@H](NC(=O)[C@@H](NC(=O)[C@H](Cc1ccc(O)cc1)NC(=O)[C@H](Cc1ccc(O)cc1)NC(=O)[C@H](CC(N)=O)NC(=O)[C@H](CCC(=O)O)NC(=O)[C@H](Cc1ccccc1)NC(=O)[C@@H](NC(=O)[C@H](CO)NC(=O)[C@H](CCC(=O)O)NC(=O)[C@H](CCCCN)NC(=O)[C@H](Cc1ccccc1)NC(=O)[C@@H](N)CCCCN)C(C)C)C(C)C)C(=O)N[C@@H](Cc1ccc(O)cc1)C(=O)N[C@@H](CO)C(=O)N[C@@H](CO)C(=O)N[C@@H](CCSC)C(=O)N[C@@H](CC(C)C)C(=O)N[C@@H](Cc1ccc(O)cc1)C(=O)N[C@@H](CCCNC(=N)N)C(N)=O,"Fibroblast growth factor 14 (Homo sapiens, UniProt Q92915)",,,,,kon,16900 ± 810 M⁻¹ s⁻¹
O=P(O)(O)O[C@@H]1[C@@H](O)[C@H](O)[C@H](O)[C@H](O)[C@H]1OP(=O)(O)O,"Inositol 1,4,5-trisphosphate-gated calcium channel ITPR1 (Itpr1, Rattus norvegicus, UniProt P29994, del318-332/R568Q)",Ca2+ release,"DT40, permeabilized",,baseline: R568Q over wild type,fold loss of potency,1.6 fold
CNc1ccccc1C(=O)O[C@H]1C[C@H](n2cnc3c(N)ncnc32)O[C@@H]1COP(=O)(O)OP(=O)(O)O,"Unconventional myosin-Va (Gallus gallus, UniProt Q02440, D297C/G292C/I296C/S293C/V295G)",stopped-flow FRET,,"25 °C, with: MgCl2 2 mM",,pocket reverse rate constant,5.79 ± 0.2 s⁻¹
CCC(=O)N(C)c1ccc(Cl)c(Cl)c1,"Aryl hydrocarbon receptor (AHR, Homo sapiens, UniProt P35869)","reporter gene, agonist",,10 µM,baseline: vehicle,fold activation,4.94 fold
